# Published values from different studies.
# Compare with care: the assays were run in different laboratories. Several values in a cell are separate wells, animals, samples, runs or records. ± gives the spread as reported.
SMILES,tested on,assay,test system,setting,how to read,quantity,result
CC(=O)Oc1ccccc1C(=O)[O][Pt]([NH2])([NH2])([Cl])([Cl])[O]C(=O)C(Cl)Cl,HEK293 and LoVo,"cytotoxicity, MTT",,,relative to: IC50 HEK293 over IC50 LoVo,selectivity index,0.1
CC(=O)N[C@H](C(=O)N[C@H](C(=O)N[C@@H](CCCNC(=N)N)C(=O)N1Cc2ccccc2C[C@H]1C(=O)N[C@@H](Cc1ccccc1)C(N)=O)C1CCCCC1)C(C)C,MBP-specific BC-3 T cells,"Bio-Plex multiplex, measured: IL-13",,"200 µg/mL, 24 h, together with: MBP87-99 antigen",,cytokine level,60.1 ± 78.5 pg/mL
CCC(=C(c1ccc(Cl)cc1)c1ccc(OCCN(C)C)cc1)c1ccc(Cl)cc1,NCI-60 tumour cell lines,,,"10 µM, mean over cell lines",,growth inhibition,35.2%
Cc1nn(-c2ccc(S(=O)(=O)N[C@@H](CO)CC(C)C)cc2)c2nn3nnnc3nc12,HT-29,PI/Hoechst staining,,"2 µM, 24 h",,necrotic cells,24 ± 1.4%
C=CC(=O)Nc1cc(Nc2nccc(-c3c(-c4cccc(OC)c4)n(C)c4ccccc34)n2)c(OC)cc1N(C)CCN(C)C,H1975,scratch,,"concentration not given, 24 h",,wound closure,decreased
COc1cc(CNC(=O)C[C@H](C)CCC=C(C)C)ccc1OCc1cn(-c2ccc(F)cc2)nn1,OVCAR-3 ovarian cancer cells,SRB,,"10 µM, 48 h",,growth percent,108%
N#Cc1ccc(-c2cn([C@@H]3O[C@H](CO)[C@@H](O)[C@H]3O)c3ncnc(N)c23)cc1,HEK,cytotoxicity,,,,EC50,> 200 µM
CCc1cnc(NC(=O)c2cc(S(=O)(=O)N3CCOCC3)ccc2N(C)C2CCCC2)s1,HCC827 and HCC827-GR,"Western blot, measured: PTK7, MET, STAT3 signalling",,"10 µM, 24 h",,PTK7 and MET N-glycosylation,decreased
COc1ccc([C@@H]2CC(=O)c3c(O)cc(O[C@@H]4O[C@H](CO[C@@H]5O[C@@H](C)[C@H](O)[C@@H](O)[C@H]5O)[C@@H](O)[C@H](O)[C@H]4O)cc3O2)cc1O,A549,"cell migration, scratch",,"50 µg/mL, 24 h",,gap closure,4.64 ± 0.58%
CCN(CC)CC(=O)Nc1cccc(-n2cc(-c3ccc4ccc(-c5cn(-c6cccc(NC(=O)CN(CC)CC)c6)nn5)cc4c3)nn2)c1,RCC4,"qRT-PCR, measured: HIF-1α",,"5 x IC50, 6 h",relative to: untreated,mRNA level,4.2%
COc1cc(CNC(=O)C[C@H](C)CCC=C(C)C)ccc1OCc1cn(-c2ccccc2)nn1,OVCAR-4 ovarian cancer cells,SRB,,"10 µM, 48 h",,growth percent,95.3%
CC[C@H](C)[C@H](NC(=O)[C@H](Cc1ccccc1)NC(=O)[C@@H](N)C(C)C)C(=O)N[C@@H](C)C(N)=O,PC-12,"Aβ42-induced neurotoxicity, inhibitor, MTT",,"concentration not given, 6 h, 37 °C, peptide to Aβ42 1:1, together with: Aβ42 2 µM",relative to: untreated cells,viability,79.3%
C=CC(=O)Nc1cc(-c2nn(C3CCN(CCNC(=O)[C@H](C)CCC45CC6CC(CC(C6)C4)C5)CC3)c3ncnc(N)c23)ccc1Oc1ccccc1,PC-9 GR4 HER3 C721S,"cell growth, CellTiter-Glo",,,relative to: C721S over wild-type HER3,EC50 shift,6 fold
C[C@@H](O)[C@H](NC(=O)[C@@H]1CSSC[C@H](NC(=O)[C@@H](Cc2ccccc2)NC(=O)CCC(C(=O)O)N2CCN(CC(=O)O)CCN(CC(=O)O)CC2)C(=O)N[C@@H](Cc2ccc(O)cc2)C(=O)N[C@H](Cc2c[nH]c3ccccc23)C(=O)N[C@@H](CCCCN)C(=O)N[C@@H]([C@@H](C)O)C(=O)N1)C(=O)O (stereo partly shown) [copper-64 labelled],HCT116-SSTR2,,,"15 min to 4 h, 64Cu-labelled",,internalisation increase,59%
CC(=C(c1ccc(O)cc1)c1ccc(Cl)cc1)c1ccc(Cl)cc1,SW-620,"cell growth or viability, SRB",,,,GI50,0.82 µM
Cc1csc(CCCNc2nc3c(c(=O)[nH]2)[n+](C)cn3C2OC(COP(=O)(O)OP(=O)([O-])OP(=O)(O)OCC3OC(n4cnc5c(=O)[nH]c(N)nc54)C(O)C3O)C(O)C2O)n1 (stereo not shown),HEK293 transfected with capped mRNA,luciferase expression,,,relative to: m7GpppG-capped mRNA,relative protein expression,1.42 and 1.4
CC(C)=C1CC[C@]2(COC(=O)c3ccccc3)[C@@H](OC(=O)c3ccccc3)/C=C(\C)CC[C@@H]3O[C@@]3(C)C[C@@H](OC(=O)c3cccnc3)[C@@H]12,"HepG2, palmitic acid-induced insulin resistance",,,"10.0 µM, 24 h",,glucose consumption,6.98 ± 0.72 mM
Cc1nc(C)c(C=[N+]([O-])C(C)(C)C)nc1C,,"Western blot, measured: GSK-3β phospho-Ser9","mouse, MPTP model",30 mg/kg,,protein level increase,120%
COc1cc(CNC(=O)C[C@H](C)CCC=C(C)C)ccc1OCc1cn(-c2cccc(C(F)(F)F)c2)nn1,SF-268 CNS cancer cells,SRB,,"10 µM, 48 h",,growth percent,83.9%
Nc1ncc(-c2cnn(C3CCNCC3)c2)cc1-c1nc2ccc(O)cc2o1,HEL 92.1.7,"RT-PCR, measured: cyclin B1",,"concentration not given, 16 h",relative to: untreated,mRNA level,decreased
COc1cc([C@@H]2OC[C@@H]3[C@H]2CO[C@H]3c2cc(OC)c(O)c(OC)c2)cc(OC)c1O,"HepG2, palmitic acid-induced insulin resistance",,,"12.5 µM, 24 h",,glucose consumption,8.97 ± 0.47 mM
Cc1cc([C@H](C(=O)N2C[C@H](O)C[C@H]2C(=O)N[C@@H](CC(=O)N2CCC(N3CCC(C#Cc4ccc(C(=O)N[C@H]5C(C)(C)[C@H](Oc6ccc(C#N)c(Cl)c6)C5(C)C)cc4)CC3)CC2)c2ccc(-c3scnc3C)cc2)C(C)C)on1,MDA-MB-453 and HCC1428,flow cytometry,,1 µM,,time to robust apoptosis,48 h
COc1cc(CNC(=O)C[C@H](C)CCC=C(C)C)ccc1O,OVCAR-4 ovarian cancer cells,SRB,,"10 µM, 48 h",,growth percent,78.7%
[64Cu+2].c1cnc(CNCc2ccc(CN3CCCN4CCNCCCN(CC4)CC3)cc2)nc1,CXCR4,,"NOD/SCID mouse, U87 and U87-stb-CXCR4 xenografts, stomach","iv, 90 min, ex vivo, together with: AMD3465 25 mg/kg sc before tracer",,tissue uptake,0.91 ± 0.41 %ID/g
COc1cc(CNC(=O)C[C@H](C)CCC=C(C)C)ccc1OCc1cn(-c2ccccc2Cl)nn1,SF-268 CNS cancer cells,SRB,,"10 µM, 48 h",,growth percent,82.4%
CC(C)[C@@H](NC(=O)[C@H](N)CCCNC(=N)N)C(=O)N[C@H](CCCCN)C(=O)N[C@@H](C(=O)N[C@H](CCCCN)C(=O)N[C@@H](C(=O)N[C@@H](C(=O)N[C@@H](C(=O)N[C@@H](C(=O)N[C@H](CCCNC(=N)N)C(=O)N[C@H](CCCNC(=N)N)C(=O)N[C@H](CCCNC(=N)N)C(=O)N[C@H](CCCNC(=N)N)C(=O)N[C@H](CCCNC(=N)N)C(=O)N[C@H](CCCNC(=N)N)C(=O)N[C@H](CCCNC(=N)N)C(=O)N[C@H](CCCNC(=N)N)C(=O)N[C@H](CCCNC(=N)N)C(N)=O)C(C)C)C(C)C)C(C)C)C(C)C)C(C)C,human PBMC CD4+ T cells,flow cytometry,,"concentration not given, 72 h, unstimulated",,Ki67 expression,increased
CCC(=C(c1ccc(Cl)cc1)c1ccc(OCCCN(C)C)cc1)c1ccc(Cl)cc1,NCI-60 tumour cell lines,,,"10 µM, mean over cell lines",,growth inhibition,5.92%
CC1=CC(OC(=O)c2ccccc2)C2(COC(=O)c3ccccc3)CCC(=C(C)C)C2C(O)CC2(C)OC2CC1 (stereo not shown),"HepG2, palmitic acid-induced insulin resistance",,,"12.5 µM, 24 h",,glucose consumption,5.6 ± 0.47 mM
[64Cu+2].c1ccc(CNCc2ccc(CN3CCCN4CCNCCCN(CC4)CC3)cc2)nc1,CXCR4,,"NOD/SCID mouse, U87 and U87-stb-CXCR4 xenografts, lungs","iv, 90 min, no blocking dose, ex vivo",,tissue uptake,6.16 ± 0.34 %ID/g
O=Cc1c(O)ccc2ccccc12,HUVEC,"RNA sequencing, measured: PALD1",,"75 µM, 24 h",relative to: DMSO,log2 fold change,-3.48
CCC(=C(c1ccc(Cl)cc1)c1ccc(OCCN2CCOCC2)cc1)c1ccccc1,NCI-60 tumour cell lines,,,"10 µM, mean over cell lines",,growth inhibition,5.16%
CC(=O)O[C@H]1CC[C@]2(C)[C@H]3C(=O)C=C4[C@@H]5C[C@@](C)(C(=O)OCc6ccccc6)CC[C@]5(C)CC[C@@]4(C)[C@]3(C)CC[C@H]2C1(C)C,HepG2,annexin V/7-AAD flow cytometry,,"8 µM, 24 h",,apoptotic cells,21.5%
Cc1ccc(C(C)C)cc1.[Cl-].[Cl][Ru+].[Ru+].c1ccc(-c2cn(CCCCOc3ccccc3-c3nc4ccccc4s3)nn2)nc1,MCF7,annexin V/PI flow cytometry,,"8 µM, 24 h",,late apoptotic cells,15.3%
CSC(=NN=C(C)c1ccc(S(=O)(=O)N2CCC(C)CC2)cc1)N(C)C,HepG2,flow cytometry,,"3.31 µM, 72 h",,cells in %G0-G1,35.3%
O=C(/C=C/c1cccc(S(=O)(=O)Nc2ccc(Cl)cc2F)c1)NO,MOPC-315,cell growth,,24 h,relative to: belinostat,relative potency,0.309
CSC(=S)N/N=C(\C)c1ccc(S(=O)(=O)N2CCC(C)CC2)cc1,HepG2,annexin V/PI staining,,"IC50, 72 h",,necrotic cells,1.58%
CC(=O)[O-].O.O.O.O.[Ni+2].[O-]c1ccc(Br)cc1C=NCCN1CCOCC1,Shigella flexneri,,,20 µL of 100 µM per disc,,inhibition zone diameter,27 mm
O=C1Nc2ccc(F)cc2C1=Cc1c(Cl)[nH]c2c1ccc1ccccc12,leukaemia subpanel of NCI-60,,,48 h,,TGI,8.71 µM
C=C1[C@H](O)CC(=C/C=C2\CCC[C@]3(C)[C@@H]([C@@H](C)CCCC)CC[C@@H]23)C[C@H]1O,HL-60,"cell differentiation, NBT reduction",,,"relative to: compound over 1α,25-dihydroxyvitamin D3",EC50 ratio,2.5
CO[C@@H]1[C@H](N(C)C(=O)c2ccccc2)C[C@H]2O[C@]1(C)n1c3ccccc3c3c4c(c5c6ccccc6n2c5c31)C(=O)NC4,CLL patient B cells,flow cytometry,human,1000 nM,relative to: untreated,viable CD19+ B cells,12%
Cc1cc2nc(-c3cc4ccccc4nc3Cl)[nH]c2cc1C,HepG2,"western blot, measured: Bcl-2",,concentration not given,relative to: untreated,protein level,decreased
COc1cc(CNC(=O)C[C@H](C)CCC=C(C)C)ccc1OCc1cn(-c2ccc(C#N)cc2)nn1,SR leukaemia cells,SRB,,"10 µM, 48 h",,growth percent,24.7%
CC(=O)OC[C@H]1O[C@@H](Sc2sc(C(=O)c3ccc(Br)cc3)c(N)c2-c2nc3ccccc3s2)[C@H](OC(C)=O)[C@@H](OC(C)=O)[C@H]1OC(C)=O,M14,SRB,,"10 µM, 48 h",relative to: untreated,growth,96.1%
COCCNCC(=O)N(CCCCN)CC(=O)N(CC(=O)N(CC(=O)N(CCCCN)CC(=O)N[C@@H](CCCCN)C(=O)N[C@H](CCCCN)C(=O)N[C@@H](CCSC)C(=O)NCCCC[C@H](NC(=O)[C@H](CCSC)NC(=O)[C@@H](CCCCN)NC(=O)[C@H](CCCCN)NC(=O)CN(CCCCN)C(=O)CN(C(=O)CN(Cc1ccc2c(c1)OCO2)C(=O)CN(CCCCN)C(=O)CNCCOC)[C@H](C)c1ccccc1)C(N)=O)[C@H](C)c1ccccc1)Cc1ccc2c(c1)OCO2,H358,"gene expression decrease, qRT-PCR, measured: SOX2",,6 days,,onset concentration,10 µM
Cc1ccc(-c2cn([C@@H]3O[C@H](CO)[C@@H](O)[C@H]3O)c3ncnc(N)c23)cc1Cl,HEK,cytotoxicity,,,,EC50,> 200 µM
COCCn1cc(COc2cccc(Cc3cnc(NC(=O)CSc4nc(C)cc(C)n4)s3)c2)nn1,PC-3M-luc,immunofluorescence,,"20 µM, 5 h",,α-tubulin acetylation,increased

# Repeated from above:
SMILES,tested on,assay,test system,setting,how to read,quantity,result
CC(C)=C1CC[C@]2(COC(=O)c3ccccc3)[C@@H](OC(=O)c3ccccc3)/C=C(\C)CC[C@@H]3O[C@@]3(C)C[C@@H](OC(=O)c3cccnc3)[C@@H]12,"HepG2, palmitic acid-induced insulin resistance",,,"10.0 µM, 24 h",,glucose consumption,6.98 ± 0.72 mM
C=CC(=O)Nc1cc(-c2nn(C3CCN(CCNC(=O)[C@H](C)CCC45CC6CC(CC(C6)C4)C5)CC3)c3ncnc(N)c23)ccc1Oc1ccccc1,PC-9 GR4 HER3 C721S,"cell growth, CellTiter-Glo",,,relative to: C721S over wild-type HER3,EC50 shift,6 fold
CO[C@@H]1[C@H](N(C)C(=O)c2ccccc2)C[C@H]2O[C@]1(C)n1c3ccccc3c3c4c(c5c6ccccc6n2c5c31)C(=O)NC4,CLL patient B cells,flow cytometry,human,1000 nM,relative to: untreated,viable CD19+ B cells,12%
CCC(=C(c1ccc(Cl)cc1)c1ccc(OCCN(C)C)cc1)c1ccc(Cl)cc1,NCI-60 tumour cell lines,,,"10 µM, mean over cell lines",,growth inhibition,35.2%
COCCn1cc(COc2cccc(Cc3cnc(NC(=O)CSc4nc(C)cc(C)n4)s3)c2)nn1,PC-3M-luc,immunofluorescence,,"20 µM, 5 h",,α-tubulin acetylation,increased
[64Cu+2].c1ccc(CNCc2ccc(CN3CCCN4CCNCCCN(CC4)CC3)cc2)nc1,CXCR4,,"NOD/SCID mouse, U87 and U87-stb-CXCR4 xenografts, lungs","iv, 90 min, no blocking dose, ex vivo",,tissue uptake,6.16 ± 0.34 %ID/g
COCCNCC(=O)N(CCCCN)CC(=O)N(CC(=O)N(CC(=O)N(CCCCN)CC(=O)N[C@@H](CCCCN)C(=O)N[C@H](CCCCN)C(=O)N[C@@H](CCSC)C(=O)NCCCC[C@H](NC(=O)[C@H](CCSC)NC(=O)[C@@H](CCCCN)NC(=O)[C@H](CCCCN)NC(=O)CN(CCCCN)C(=O)CN(C(=O)CN(Cc1ccc2c(c1)OCO2)C(=O)CN(CCCCN)C(=O)CNCCOC)[C@H](C)c1ccccc1)C(N)=O)[C@H](C)c1ccccc1)Cc1ccc2c(c1)OCO2,H358,"gene expression decrease, qRT-PCR, measured: SOX2",,6 days,,onset concentration,10 µM
